Experimental data pooled from the literature.
Compare with care: the assays were run in different laboratories. Values joined by “and” are separate records of one study, mostly repeats; a detail may differ. pIC50: −log10 of the molar value.
GBA1 R534H: Lysosomal acid glucosylceramidase (GBA1, Homo sapiens, UniProt P04062, R534H)
P4HB: Protein disulfide-isomerase (P4HB, Homo sapiens, UniProt P07237)
Gria1/Gria2: Glutamate receptor AMPA 1/2 (Gria1/Gria2, Rattus norvegicus, UniProt P19490+P19491)
HDAC9: Histone deacetylase 9 (HDAC9, Homo sapiens, UniProt Q9UKV0)
HDAC6: Protein deacetylase HDAC6 (HDAC6, Homo sapiens, UniProt Q9UBN7)
JAK3: Tyrosine-protein kinase JAK3 (JAK3, Homo sapiens, UniProt P52333)

SMILES	target or system	test	system	conditions	how to read	measurement	value
O=C(Cc1ccc(OCc2ccccc2)cc1)NC1(C(=O)O)CCN(C(=O)c2ccc(-c3cccc(Cl)c3)cc2)CC1	AGTR1 (Homo sapiens, UniProt P30556)	reporter gene, antagonist, luciferase				pIC50	< 5.00
O=S1(=O)O[C@@H]2[C@H](CO)[C@@H](O)[C@H](O)[C@@H](O)[C@@H]2O1	bglA (Thermotoga maritima, UniProt Q08638)	enzyme activity, inhibitor		pH 6.8, with preincubation		pIC50	< 4.00
OC[C@H]1[C@@H](O)[C@H](O)[C@@H](O)CN1CCCCCOCC1CCCCC1	GBA1 R534H	inhibitor, 4MU-β-D-glucopyranoside		with: 4MU-β-D-glucopyranoside		pIC50	4.22
C[C@@H](O)[C@H](NC(=O)[C@@H]1CSSC[C@@H](NC(=O)[C@H](Cc2ccccc2)NC(N)=O)C(=O)N[C@@H](Cc2ccc(NC(N)=O)cc2)C(=O)N[C@H](Cc2c[nH]c3ccccc23)C(=O)N[C@@H](CCCCN)C(=O)N[C@@H]([C@@H](C)O)C(=O)N1)C(N)=O	SSTR1 (Homo sapiens, UniProt P30872)	ligand displacement, radioligand				pIC50	< 6.00
CCOc1ccc(/C=C/C(=O)c2ccc3c(c2)OCCO3)cc1	P4HB	enzyme activity, inhibitor				pIC50	4.28
N#Cc1ccc(-c2ccc(COCCCCCN3C[C@H](O)[C@@H](O)[C@H](O)[C@H]3CO)cc2)cc1	GBA1 R534H	inhibitor, 4MU-β-D-glucopyranoside		with: 4MU-β-D-glucopyranoside		pIC50	6.46
Nc1ncc(-c2cc(-c3cnn(CC(F)(F)F)c3)ncc2F)nc1C(=O)NC1CNCC(F)C1 (stereo not drawn)	LIMK2	KINOMEscan		1 µM	reference: DMSO control	remaining binding	81%
CC(C)(C)n1ncc2c(=O)n(Cc3cccc(F)c3)c(NCc3ccc(F)cn3)nc21	PDE8A (Homo sapiens, UniProt O60658)	enzyme activity, inhibitor				pIC50	< 5.00
N#Cc1c(-c2ccco2)cc(-c2cccs2)[nH]c1=O	Protein FosB, ΔFosB isoform, with JunD (Fosb, Mus musculus, UniProt P13346)	ΔFosB/JunD binding to AP-1 DNA, inhibitor, fluorescence polarization		protein, full length 280 nM, no TCEP, with: 25 nM TMR-cdk5 oligonucleotide		pIC50	~5.52 and 5.48
CN1CCC[C@@H]1C(=O)N[C@@H](Cc1ccc(-c2ccccc2)cc1)B(O)O	PSMB6/PSMB7 (Homo sapiens, UniProt P28072+Q99436)	β1c caspase-like activity, inhibitor		constitutive proteasome, with: Z-LLE-AMC		pIC50	< 5.00
CN(C)c1ccc(/C=C/C(=O)c2ccc(S(=O)(=O)N3CCCCCC3)cc2)cc1[N+](=O)[O-]	P4HB	enzyme activity, inhibitor				pIC50	< 4.00
O=C(O)Cc1cc2c(cc1C(=O)c1ccccc1)OCO2	Gria1/Gria2	ion current, antagonist, patch clamp				pIC50	5.26
O=C(CCc1ccc(CNC(C(=O)OC2CCCC2)C2CCCCC2)cn1)NO (stereo not drawn)	HDAC9	enzyme activity, inhibitor				pIC50	< 5.00
CC[C@H](C)[C@@H]1NC(=O)[C@H](Cc2ccccc2C(F)(F)F)NC(=O)CCSCc2cccc(n2)CSCCCNC(=O)[C@H](CCCCCC(=O)NO)NC1=O	HDAC6	enzyme activity, inhibitor, fluorescence				pIC50	7.32
CCOC(=O)C[C@@H](C#N)NC(=O)[C@@H]1CCCN1C(=O)[C@@H](NC(=O)c1ccc(N)c(Cl)c1)C(C)(C)C	Caspase-5 (CASP5, Homo sapiens, UniProt P51878)	enzyme activity, inhibitor				pIC50	6.44
Fc1ccc(Nc2nc(NC3CCCCC3)c3cc(Br)ccc3n2)cc1F	ADRB2 (Homo sapiens, UniProt P07550, V126A)	β-arrestin2 recruitment, antagonist, BRET	HEK293	mutant V126A, with: isoprenaline 1 µM		pIC50	6.10
C=CC(=O)Nc1cccc(Cn2ncc3cnc(Nc4cnn(CCOC)c4)nc32)c1	EIF2AK1 human	binding, KINOMEscan		100 nM	lower = stronger binding	percent of control	85%
OC[C@H]1N[C@H](CCCCOCC23CC4CC(CC(C4)C2)C3)[C@H](O)[C@@H](O)[C@@H]1O	GBA1 R534H	inhibitor, 4MU-β-D-glucopyranoside		with: 4MU-β-D-glucopyranoside		pIC50	6.46
O=C(O)Cc1cc2c(cc1C(=O)c1ccccc1Cl)OCO2	Gria1/Gria2	ion current, patch clamp				pIC50	5.36

SMILES	target or system	test	system	conditions	how to read	measurement	value
COc1ccc(CNC(=O)c2cccc(CNc3ccncn3)c2)cc1OC	WDR5 (Homo sapiens, UniProt P61964)					pIC50	4.97 and ≥ 4.70
CCCCCCN1C[C@H](O)[C@@H](O)[C@H](O)[C@H]1CO	GBA1 R534H	inhibitor, 4MU-β-D-glucopyranoside		with: 4MU-β-D-glucopyranoside		pIC50	4.10
CCCC[C@H](NC(C)=O)C(=O)N[C@@H](CO)C(=O)N[C@H](C(=O)N1CCC[C@H]1C(=O)N[C@]1(C)CCCCCCC=CCCC[C@@](C)(C(=O)N[C@@H](Cc2ccccc2)C(=O)N[C@@H](CCCCN)C(=O)N[C@@H](CCCNC(=N)N)C(=O)N[C@@H](CC(C)C)C(=O)N[C@@H](CCC(N)=O)C(N)=O)NC(=O)[C@H](CCCNC(=N)N)NC(=O)[C@H](CCCC)NC(=O)[C@H](CC(C)C)NC(=O)[C@H](CCCNC(=N)N)NC(=O)[C@H](CCCNC(=N)N)NC(=O)[C@H](CCCNC(=N)N)NC1=O)[C@@H](C)O	proteinase K (Tritirachium album)	proteolytic stability, LC-MS		25 µM, 307.5 min, pH 7.4		remaining intact peptide	58.5% and 57.7%
OC[C@H]1N[C@H](CCCCCOCC23CC4CC(CC(C4)C2)C3)[C@H](O)[C@@H](O)[C@@H]1O	GBA1 R534H	inhibitor, 4MU-β-D-glucopyranoside		with: 4MU-β-D-glucopyranoside		pIC50	7.15
O=C(/C=C/c1ccc(Cl)cc1Cl)c1ccc2c(c1)OCCO2	P4HB	enzyme activity, inhibitor				pIC50	< 5.00
CC(C)C[C@H](NC(=O)[C@H](Cc1ccc(CN)cc1)NC(=O)[C@H](Cc1ccccc1)N=[N+]=[N-])C(=O)N[C@@H](CC1CCC(C)CC1)C(=O)[C@@]1(C)CO1 (stereo partly drawn)	PSMB8 (Homo sapiens, UniProt P28062)	enzyme activity, inhibitor		lysate		pIC50	6.37
Cc1ccc(C(=O)/C=C/c2ccc(OCC(=O)O)cc2)cc1C	P4HB	enzyme activity, inhibitor				pIC50	4.41
OCc1cccc(Nc2ncc(Cl)c(Nc3ccccc3-c3nccs3)n2)c1	IRAK4 (Homo sapiens, UniProt Q9NWZ3)	enzyme activity, inhibitor, radiometric				pIC50	8.42
OC[C@H]1N[C@H](C/C=C/CCOCC23CC4CC(CC(C4)C2)C3)[C@H](O)[C@@H](O)[C@@H]1O	GBA1 R534H	inhibitor, 4MU-β-D-glucopyranoside		with: 4MU-β-D-glucopyranoside		pIC50	6.60
O=C(O)Cc1cc2c(cc1C(=O)c1ccc(Cl)cc1Cl)OCO2	Gria1/Gria2	ion current, antagonist, patch clamp				pIC50	5.41
OC(COc1ccc2cc(Br)ccc2c1)Cn1ccnc1 (stereo not drawn)	Trypanosoma cruzi	reporter mRNA translation, inhibitor, measured: Renilla luciferase mRNA	cell-free extract	concentration not given, test 3	reference: positive over negative control	translation activity	109%
CNC(=O)c1ccc(CNC(=O)c2cnn3ccccc23)cc1	DDR1 (Homo sapiens, UniProt Q08345)	ligand displacement				pIC50	4.31
C/C(=N\Nc1nc(-c2ccc(Cl)cc2)cs1)c1ccc2c(c1)sc1nc(=O)c(C#N)cn12	DNA gyrase (gyrA/gyrB, Escherichia coli, UniProt P0AES4+P0AES6)	enzyme activity, inhibitor				pIC50	5.81
CCn1nc(Cl)c2c1-c1cnc(N)c(c1)O[C@H](C)c1cc(F)ccc1-c1nn(C)cc1C2	PLK4 (Homo sapiens, UniProt O00444)	enzyme activity, inhibitor, radiometric				pIC50	6.25
COc1cc(/C=C/C(=O)c2ccc(S(=O)(=O)N3CCCC3)cc2)cc(OC)c1O	P4HB	enzyme activity, inhibitor				pIC50	4.13
Cc1nn(-c2cccc(N)c2)c(=O)c2cnc(Nc3ccc(N4CCNCC4)cc3)nc12	JAK3	enzyme activity, inhibitor				pIC50	5.67
CC[C@H](C)C(=O)O[C@H]1C[C@@H](C)C=C2C=C[C@H](C)[C@H](CC[C@@H]3CC=CC(=O)O3)[C@H]21	CFTR (Homo sapiens, UniProt P13569)	ion current, inhibitor				pIC50	5.96
O=C1CCC(N2C(=O)c3ccc(N4CC(C(=O)N5CC(CCN6CCC(CNC(=O)c7cccc(-c8noc(C(F)(F)F)n8)c7)(c7nc(-c8ccccc8)cs7)CC6)C5)C4)cc3C2=O)C(=O)N1 (stereo not drawn)	HDAC9	enzyme activity, inhibitor				pIC50	7.15
OC[C@H]1c2[nH]cnc2[C@H](O)[C@@H](O)[C@@H]1O	GBA1 R534H			30 min preincubation, pH 5.2, with: 200 µM 2,4-dinitrophenyl-β-D-glucopyranoside		pIC50	5.21

SMILES	target or system	test	system	conditions	how to read	measurement	value
O=C(NO)c1cccc(OS(=O)(=O)Oc2cccc([N+](=O)[O-])c2)c1	HDAC6	enzyme activity, inhibitor, fluorescence				pIC50	7.14
CN1CCCNC(=O)c2cccc(c2)C(=O)NCCCN(C)CCCNc2cccc3c2C(=O)c2cccc(c2C3=O)NCCC1	SAS	RNA-seq, measured: TMEM44-AS1 mRNA		1 µM, 6 h	reference: untreated cells	log2 fold change	1.23
Cc1cc(C)nc(NC(=S)N2CCN(c3ccncc3)CC2)c1	Glycerol-3-phosphate dehydrogenase 1-like protein (GPD1L, Homo sapiens, UniProt Q8N335)	enzyme activity		counterscreen		pIC50	< 4.00
CC(C)(C)NC(=O)C1CCN(Cc2cccc(/N=N/c3ccc(F)cc3F)c2)CC1	ACKR3 (Homo sapiens, UniProt P25106)	ligand displacement, BRET				pIC50	< 5.00
O=C(NO)c1cncc(OS(=O)(=O)Oc2ccc(Oc3ccccc3)cc2)c1	HDAC6	enzyme activity, inhibitor, fluorescence				pIC50	6.22
COc1cc(C)ccc1C(=O)/C=C/c1ccc(OC)c(OC)c1OC	P4HB	enzyme activity, inhibitor				pIC50	< 4.00
COC1CN([C@H]2CC[C@H]([C@@]3(C)Oc4c(Cl)cc(C(=O)NCc5c(SC)cc(C)[nH]c5=O)c(C)c4O3)CC2)C1		RNA-seq, measured: GYG1	human, whole blood	dose not given, 24 h	reference: pretreatment baseline	log2 fold change	1.04
COC(=O)Cc1cc2c(cc1C(=O)c1cccc(I)c1)OCO2	Gria1/Gria2	ion current, patch clamp				pIC50	5.24
Cc1cc(NC2CCN(C)CC2)ccc1-c1cc2c(N3CCC[C@H](C(=O)NCc4ccc(OC(F)(F)F)cc4)C3)ncnc2[nH]1	ROCK1 (Homo sapiens, UniProt Q13464)	enzyme activity, inhibitor, mobility shift				pIC50	< 5.10
CNS(=O)(=O)Nc1nccc(Cc2c(C)c3ccc(Oc4ncccc4F)cc3oc2=O)c1F	KP-2	cell viability, CellTiter-Glo		7 days		pIC50	7.68
OC[C@@H]1[C@@H](O)[C@H](O)[C@@H](O)CN1CCCCCOCc1ccc(-c2ccc(Cl)cc2)cc1	GBA1 R534H	inhibitor, 4MU-β-D-glucopyranoside		with: 4MU-β-D-glucopyranoside		pIC50	6.30
CCc1ccc(C(=O)/C=C/c2ccc(O)cc2)cc1	P4HB	enzyme activity, inhibitor				pIC50	< 4.00
Cc1ncsc1-c1ccc(C(C)NC(=O)C2CC(O)CN2C(=O)C(NC(=O)CCCCCCCCCCN2CCCC(Nc3ncc(Cl)c(Nc4ccccc4S(=O)(=O)C(C)C)n3)C2)C(C)(C)C)cc1 (stereo not drawn)	22Rv1	RNA-seq, measured: SEMA4C mRNA		concentration not given	reference: DMSO	log2 fold change	-1.6
OC[C@@H]1[C@@H](O)[C@H](O)[C@@H](O)CN1CCCCCOCc1ccccc1-c1ccccc1	GBA1 R534H	inhibitor, 4MU-β-D-glucopyranoside		with: 4MU-β-D-glucopyranoside		pIC50	5.90
CCC(CC)C(=O)/C=C/C(=O)N1CCc2cc(Nc3ncc(C)c(-c4cnn(C(C)C)c4)n3)ccc2C1	JAK3	enzyme activity, inhibitor, ADP detection				pIC50	< 7.52
COC(=O)Cc1cc2c(cc1C(=O)c1ccccc1Cl)OCO2	Gria1/Gria2	ion current, antagonist, patch clamp				pIC50	5.28
O=c1c(-c2cnn(-c3ccc(Cl)cc3)c2)c(C(F)(F)F)oc2c(O)c(O)ccc12	Cullin-1, C-terminal domain with ROC1 (Homo sapiens, UniProt Q13616)	inhibitor, FRET		with: ROC1-CUL1 CTD		pIC50	5.23
CCN(CC)CC(=O)Nc1cccc(-n2cc(-c3ccc4ccc(-c5cn(-c6cccc(NC(=O)CN(CC)CC)c6)nn5)cc4c3)nn2)c1	FGFR1 (Homo sapiens, UniProt P11362)	enzyme activity, inhibitor				pIC50	< 5.00
C[C@H](c1ccccc1)N1C(=O)C2=Nc3cccc(Cl)c3CN2C1=S	JAK3	enzyme activity, inhibitor				pIC50	6.27

Excerpt of the above:
SMILES	target or system	test	system	conditions	how to read	measurement	value
COC(=O)Cc1cc2c(cc1C(=O)c1cccc(I)c1)OCO2	Gria1/Gria2	ion current, patch clamp				pIC50	5.24
Cc1cc(NC2CCN(C)CC2)ccc1-c1cc2c(N3CCC[C@H](C(=O)NCc4ccc(OC(F)(F)F)cc4)C3)ncnc2[nH]1	ROCK1 (Homo sapiens, UniProt Q13464)	enzyme activity, inhibitor, mobility shift				pIC50	< 5.10
CNS(=O)(=O)Nc1nccc(Cc2c(C)c3ccc(Oc4ncccc4F)cc3oc2=O)c1F	KP-2	cell viability, CellTiter-Glo		7 days		pIC50	7.68
OC[C@@H]1[C@@H](O)[C@H](O)[C@@H](O)CN1CCCCCOCc1ccc(-c2ccc(Cl)cc2)cc1	GBA1 R534H	inhibitor, 4MU-β-D-glucopyranoside		with: 4MU-β-D-glucopyranoside		pIC50	6.30
